Experimental data collected from several papers.
Protocols differ between the studies behind these lines. ± marks the error that the study gave.

SMILES | assay | test system | setting | AUC(0-inf)
C[C@@H](N)C1CCN(S(=O)(=O)c2cccc3cnccc23)CC1 |  | healthy volunteers, fasted, plasma | oral, 75 mg | 15.2 ng·h/mL
C[C@H]1CN(C(=O)CC#N)[C@]12CCN(c1ncnc3[nH]ccc13)C2 |  | healthy Japanese males | oral, 100 mg single dose, mean | 3210 ng·h/mL
CCCCCCCCCCCCCCCC(=O)N[C@@H](CCC(=O)NCCCC[C@@H]1NC(=O)[C@H]([C@@H](C)CC)NC(=O)[C@@H](NC(=O)[C@@H]2CCCN2C(=O)[C@H](Cc2ccccc2)NC(=O)[C@H](Cc2c[nH]cn2)NC(=O)[C@@H](NC(=O)[C@H](CC(=O)O)NC(=O)CC(C)C)[C@@H](C)O)CSSC[C@@H](C(=O)N[C@@H](CCCCN)C(N)=O)NC(=O)CNC(=O)[C@H](CCCCN)NC(=O)[C@H](CO)NC(=O)[C@H](CCCNC(=N)N)NC(=O)[C@@H]2CCCN2C(=O)[C@H](CCC(=O)O)NC(=O)[C@H](Cc2ccccc2)NC1=O)C(=O)O |  | healthy volunteers, plasma | subcutaneous, 20 mg single, lyophilised formulation | 21600 ± 5130 ng·h/mL
CC(=O)N[C@H]1CC[C@H](NC(=O)CN2CCN(c3nncc(-c4ccc(C)cc4)n3)CC2)CC1 |  | men aged 18-55 years, plasma | oral, 100 mg single dose, study | 5360 ng·h/mL
O=C(c1ccccc1)c1ccc2n1CCC2C(=O)O (stereo not drawn) |  | New Zealand White rabbit, male, plasma | oral, 10 mg/kg drug equivalent | 137000 ± 2170 ng·h/mL
CCCS(=O)(=O)N[C@H]1C[C@@H](N(C)c2ncnc3[nH]ccc23)C1 |  | healthy volunteers, plasma, total | oral, 200 mg single dose, alone | 3880 ng·h/mL
CS(=O)(=O)c1ccc([C@@H](O)[C@@H](CF)NC(=O)C(Cl)Cl)cc1 |  | Arbor Acres chickens, plasma | oral, 20 mg/kg, added: quercetin 60 mg/kg pretreatment | 43500 ± 3440 ng·h/mL
CCCCC1=NC2(CCCC2)C(=O)N1Cc1ccc(-c2ccccc2S(=O)(=O)Nc2noc(C)c2C)c(COCC)c1 |  | healthy adult volunteers, plasma | oral, 800 mg, single dose, fasted, crushed tablet | 161000 ng·h/mL
COc1cc(C(=O)NC2CCN(C)CC2)c(F)cc1Nc1ncc(C(F)(F)F)c(Oc2cccc3c2C(=O)N(C)C3)n1 |  | cancer patients, plasma | oral, 300 mg single dose, cycle 1 day 1, geometric mean | 86.2 µM·h
Oc1ccc([C@@H](O)c2cc(-c3ncnc4cc(N5CCOCC5)ccc34)c(F)cc2Cl)nn1 | geometric mean | healthy volunteers, plasma | oral, 100 mg, high-fat fed tablet | 454 ng·h/mL
Cc1c(C(=O)O)ccc2c3n(nc12)[C@@H]1[C@H](C3)N(CC2CC2)[C@@]2(C(=O)Nc3cc(Cl)ccc32)[C@H]1c1cccc(Cl)c1F |  | cancer patients, plasma | oral, 45 mg day 1 every 3 weeks, geometric mean, cycle 1 | 173 µM·h
CC(C)c1nc(N(C)S(C)(=O)=O)nc(-c2ccc(F)cc2)c1/C=C/[C@@H](O)C[C@@H](O)CC(=O)O |  | healthy volunteers, plasma | oral, 10 mg single dose, day 1, given alone, BCRP probe | 39.9 ng·h/mL
OC[C@H]1O[C@@H](c2cc(Cc3ccc(C4CC4)cc3)c(Cl)c3c2CCO3)[C@H](O)[C@@H](O)[C@@H]1O |  | healthy Korean adults, fasted, plasma | oral, 0.3 mg single dose, fixed-dose combination tablet, added: co-administered drug 50 mg | 38.1 ± 11.5 ng·h/mL
O=C(c1cccnc1-c1ccncc1)N1CCC(O)(Cc2ccccc2)CC1 |  | healthy Japanese adults, plasma | oral, 600 mg single dose | 3920 ng·h/mL
CC(=O)O[C@@]12CO[C@@H]1C[C@H](O)[C@@]1(C)C(=O)[C@H](O)C3=C(C)[C@@H](OC(=O)[C@H](O)[C@@H](NC(=O)OC(C)(C)C)c4ccccc4)C[C@@](O)([C@@H](OC(=O)c4ccccc4)[C@H]21)C3(C)C |  | patients, plasma | intravenous, dose not given, without co-administered drug | 1110 ng·h/mL
N[C@@H](CC(=O)N1CCc2c(nc(C(F)(F)F)nc2C(F)(F)F)C1)CN1CC(F)(F)CCC1=O |  | healthy Korean adults, fasted, plasma | oral, 50 mg single dose, fixed-dose combination tablet, added: enavogliflozin 0.3 mg | 1410 ± 229 ng·h/mL
CCCCOCCOc1ccc(-c2ccc3c(c2)/C=C(/C(=O)Nc2ccc([S@@+]([O-])Cc4cncn4CCC)cc2)CCCN3CC(C)C)cc1 |  | mild hepatic impairment patients, plasma | oral, 150 mg, day 1, single dose, geometric mean | 5540 ng·h/mL
C=CC(=O)NC1CCN(c2ncc3ncnc(Nc4ccc(Oc5ccc6c(c5)ncn6C)c(C)c4)c3n2)CC1 |  | healthy male volunteers, plasma | oral, 60 mg, unlabelled tablet | 13.4 µM·h
CCc1nc2c(C)cc(N3CCN(CC(=O)N4CC(O)C4)CC3)cn2c1N(C)c1nc(-c2ccc(F)cc2)c(C#N)s1 |  | healthy volunteers, fed, plasma | oral, 600 mg single dose, day 1, capsule | 49300 ng·h/mL
CC[C@H](C)CCCCC(=O)N[C@@H](CCN)C(=O)N[C@H](C(=O)N[C@@H](CCN)C(=O)N[C@H]1CCNC(=O)[C@H]([C@@H](C)O)NC(=O)[C@H](CCN)NC(=O)[C@H](CCN)NC(=O)[C@H](CC(C)C)NC(=O)[C@@H](Cc2ccccc2)NC(=O)[C@H](CCN)NC1=O)[C@@H](C)O |  | ESKD on long-term intermittent haemodialysis, plasma | intravenous infusion, 0.75 mg/kg, geometric least squares mean | 31700 ng·h/mL
CCCCC[C@H](O)CC[C@@H]1[C@H]2Cc3cccc(OCC(=O)O)c3C[C@H]2C[C@H]1O |  | healthy Japanese adults, plasma | inhaled, 18 µg single dose, scaled by body weight/60 kg | 0.33 ± 0.07 ng·h/mL

A few entries again:
SMILES | assay | test system | setting | AUC(0-inf)
N[C@@H](CC(=O)N1CCc2c(nc(C(F)(F)F)nc2C(F)(F)F)C1)CN1CC(F)(F)CCC1=O |  | healthy Korean adults, fasted, plasma | oral, 50 mg single dose, fixed-dose combination tablet, added: enavogliflozin 0.3 mg | 1410 ± 229 ng·h/mL
CCCCOCCOc1ccc(-c2ccc3c(c2)/C=C(/C(=O)Nc2ccc([S@@+]([O-])Cc4cncn4CCC)cc2)CCCN3CC(C)C)cc1 |  | mild hepatic impairment patients, plasma | oral, 150 mg, day 1, single dose, geometric mean | 5540 ng·h/mL
